# Published values from different studies.
# Compare with care: the assays were run in different laboratories. Several values in a cell are separate wells, animals, samples, runs or records. Numbers after ± are the reported error.
# Sequence of UniProt P30874 (whole entry, looked up): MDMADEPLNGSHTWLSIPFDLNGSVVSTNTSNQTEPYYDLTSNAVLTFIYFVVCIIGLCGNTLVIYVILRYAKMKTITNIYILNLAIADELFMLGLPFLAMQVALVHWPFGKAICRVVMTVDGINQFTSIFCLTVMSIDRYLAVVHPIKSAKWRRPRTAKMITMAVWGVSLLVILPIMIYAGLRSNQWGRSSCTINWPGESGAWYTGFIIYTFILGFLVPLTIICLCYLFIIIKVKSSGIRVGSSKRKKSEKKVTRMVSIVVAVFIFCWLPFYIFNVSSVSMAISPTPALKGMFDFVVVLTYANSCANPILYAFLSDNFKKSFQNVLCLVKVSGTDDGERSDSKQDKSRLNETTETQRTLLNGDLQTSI
# Sequence of UniProt Q96PY6 (whole entry, looked up): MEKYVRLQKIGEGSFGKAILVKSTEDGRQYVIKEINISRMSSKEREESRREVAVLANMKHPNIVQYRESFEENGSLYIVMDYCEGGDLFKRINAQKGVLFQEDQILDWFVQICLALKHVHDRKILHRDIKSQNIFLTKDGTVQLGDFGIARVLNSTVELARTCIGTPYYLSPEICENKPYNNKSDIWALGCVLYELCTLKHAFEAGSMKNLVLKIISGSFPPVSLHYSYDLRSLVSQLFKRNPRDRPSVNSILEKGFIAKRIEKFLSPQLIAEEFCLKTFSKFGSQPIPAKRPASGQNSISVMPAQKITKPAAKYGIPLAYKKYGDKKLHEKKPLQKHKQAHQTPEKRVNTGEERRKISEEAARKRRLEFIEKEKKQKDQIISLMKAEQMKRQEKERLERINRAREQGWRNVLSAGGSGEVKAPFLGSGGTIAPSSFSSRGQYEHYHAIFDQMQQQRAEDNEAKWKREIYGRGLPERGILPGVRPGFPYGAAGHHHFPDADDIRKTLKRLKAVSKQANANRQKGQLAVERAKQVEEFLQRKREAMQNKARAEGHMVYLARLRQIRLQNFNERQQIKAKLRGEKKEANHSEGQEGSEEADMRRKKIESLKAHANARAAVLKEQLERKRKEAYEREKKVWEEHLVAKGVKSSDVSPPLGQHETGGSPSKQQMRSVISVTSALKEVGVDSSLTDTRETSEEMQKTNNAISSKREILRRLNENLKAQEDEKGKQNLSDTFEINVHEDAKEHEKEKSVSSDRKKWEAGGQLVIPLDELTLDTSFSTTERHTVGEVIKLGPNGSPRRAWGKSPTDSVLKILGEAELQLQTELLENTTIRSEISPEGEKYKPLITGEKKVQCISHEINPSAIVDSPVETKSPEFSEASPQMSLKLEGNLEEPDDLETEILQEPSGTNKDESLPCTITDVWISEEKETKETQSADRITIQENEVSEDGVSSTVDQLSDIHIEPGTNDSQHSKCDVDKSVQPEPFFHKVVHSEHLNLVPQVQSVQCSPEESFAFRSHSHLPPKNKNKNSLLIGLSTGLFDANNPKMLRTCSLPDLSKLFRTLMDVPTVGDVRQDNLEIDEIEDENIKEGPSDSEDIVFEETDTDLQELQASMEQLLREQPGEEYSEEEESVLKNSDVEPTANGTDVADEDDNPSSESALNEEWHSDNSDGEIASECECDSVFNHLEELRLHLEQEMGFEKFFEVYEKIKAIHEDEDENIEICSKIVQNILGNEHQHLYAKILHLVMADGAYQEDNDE
Compound,tested on,assay,system,setting,scale,measurement,value
OC(CCN1CC=C(c2ccc(F)cc2)CC1)c1ccc(F)c2ccccc12 (stereo not shown),Salmonella typhimurium,SOS/umu test,TA1535/pSK1002,"0.001 mg/mL, 4 h, without S9, lower range",,survival,118%
CC(C)C[C@H](NC(=O)[C@H](Cc1c[nH]cn1)NC(=O)[C@H](Cc1c[nH]cn1)NC(=O)[C@H](Cc1ccc(O)cc1)NC(=O)[C@@H](N)CS)C(=O)N[C@H](C(=O)N[C@@H](CC(C)C)C(=O)N[C@H](C(=O)N[C@H](C(=O)NCC(=O)NCC(=O)N[C@@H](CO)C(=O)O)C(C)C)[C@@H](C)O)C(C)C,Epstein-Barr virus,,"B-NDG humanized mouse, EBV-infected","20 mg/kg, day 14",,body weight,20.1 g and 21.5 g
COc1cccc(-c2n[nH]c(SCc3ccccn3)n2)c1OC,Salmonella typhimurium,"Ames test, plate incorporation",TA98,"1.0 mg/plate, with rat liver S9",,revertant colonies per plate,25
C[C@H]1CN(c2n[nH]c3nc(N[C@H]4CC[C@H](NS(=O)(=O)CCC(F)(F)F)CC4)ncc23)CCO1,"NEK1 (Homo sapiens, UniProt Q96PY6)","inhibitor, Kinobeads competition profiling",,0.16 µM,reference: vehicle,relative abundance,1.05
Cc1c(Cl)c(=O)oc2cc(OCCCC[Se]C#N)ccc12,Caenorhabditis elegans,,"N2 Bristol, NGM with E. coli OP50","1 µM, 24 h",,embryonic lethality,1.15%
CNC(=O)c1c(N(C)N=O)ncn1C,Escherichia coli,plate incorporation,"WP2uvrA pKM101, water","1500 µg/plate, without S9",,revertant colonies per plate,105 ± 7
Cc1cc(C(=O)NC(C)(C)COc2cccc3c2C(N)=NS(=O)(=O)N3)cc(C)n1,Salmonella typhimurium,"Ames test, initial",TA1537,5000 µg/plate,reference: solvent control,revertant ratio,1.2
CC(C)N(N=O)C(C)C,Escherichia coli,"mutagenicity, Ames plate incorporation",WP2 uvrA pKM101,"5000 µg/plate, without S9, methanol",,revertant colonies per plate,138 ± 8
O=[N+]([O-])c1ccc(NC2CCNCC2)c(C(F)(F)F)c1,Salmonella typhimurium,SOS/umu test,TA1535/pSK1002,"1 mg/mL, 4 h, without S9, full range",,survival,27.7%
CC[C@H](C)[C@@H]1NC(=O)[C@@H]2CCCN2C(=O)[C@H](CC(C)C)NC(=O)[C@H](CC(C)C)NC(=O)CNC(=O)[C@@H](NC(=O)[C@@H](NC(=O)[C@H](CC(=O)O)NC(=O)CNC(=O)[C@@H](NC(=O)[C@H](C)NC(=O)CNC(=O)[C@H](CCCCN)NC(=O)[C@H](CC(C)C)NC(=O)[C@H](CC(C)C)NC(=O)[C@H](CCCCN)NC(=O)CNC(=O)[C@@H](NC(=O)[C@@H](N)CC(C)C)C(C)C)C(C)C)C(C)C)CSSC[C@@H](C(=O)O)NC1=O,,"RNA-seq, refers to: Lsp1","mouse, traumatic brain injury model, frontal cortex and hippocampus",dose not given,reference: TBI alone,log2 fold change,-2.14
CO[C@H]1C[C@@H]2CC[C@@H](C)[C@@](O)(O2)C(=O)C(=O)N2CCCC[C@H]2C(=O)O[C@H]([C@H](C)C[C@@H]2CC[C@@H](OC(=O)NCCOCCOCCOCCOCCOCCOCCOCCOCCC(=O)N3CCc4cc(Cn5nc(-c6ccc7oc(N)nc7c6)c6c(N)ncnc65)ccc4C3)[C@H](OC)C2)C[C@@H](O)[C@H](C)/C=C(\C)[C@@H](O)[C@@H](OC)C(=O)[C@H](C)C[C@H](C)/C=C/C=C/C=C/1C,,,patients with advanced solid tumours,"intravenous, 12 mg weekly, grade 3 or higher",,dysgeusia incidence,0%
COc1cc(Nc2ncc(F)c(Nc3ccc4c(n3)NC(=O)C(C)(C)O4)n2)cc(OC)c1OC,"SSTR2 (Homo sapiens, UniProt P30874)",,,,,IC50,> 10 µM
C[C@]1(CO)Cc2ncn(-c3ccc(C#N)c(Cl)c3)c2C(=O)O1,,,Chinese subjects,"dose not given, all doses total",,drug-related Dizziness incidence,8.3%
O=[N+]([O-])c1ccc(N2CCC(NCCC(O)c3ccc(F)c4ccccc34)CC2)c(C(F)(F)F)c1 (stereo not shown),Salmonella typhimurium,SOS/umu test,"TA1535/pSK1002, TGA medium","0.000122 mg/mL, 4 h, without S9",,survival,109%
O=NN1CCN(C2CCCC2)CC1,Escherichia coli,"mutagenicity, Ames plate incorporation",WP2 uvrA pKM101,"1500 µg/plate, 3 d, without S9, methanol",,revertant colonies per plate,103 ± 3
CC(=O)N1CCC(C(=O)N2CCN3C(=O)c4cc(-c5ccccc5)ccc4NC(=O)C3C2)CC1 (stereo not shown),Salmonella typhimurium,,TA1535,5.0 µg/plate,,revertants per plate,12
O=[N+]([O-])c1ccc(N2CCN(CCC(O)c3ccc(F)cc3)CC2)c(C(F)(F)F)c1 (stereo not shown),Salmonella typhimurium,"genotoxicity, SOS/umu test",TA1535/pSK1002,"0.004 mg/mL, 4 h, without S9, full range",,induction factor,1.1
CN(CC(C)(C)C)N=O,Escherichia coli,plate incorporation,"WP2uvrA pKM101, methanol","150 µg/plate, without S9",,revertant colonies per plate,134 and 156
COc1cc2c(Oc3ccc4[nH]c(C)cc4c3F)ccnc2cc1OCC1(N)CC1,,,paediatric recurrent refractory sarcoma,10 mg,,grade 3 Hyperthyroidism,0%
